Assay results of several laboratories.
Protocols differ between the studies behind these lines. ± gives the spread as reported.

The cytotoxic concentration of COC(=O)[C@H](CSSC[C@H](NC(=O)[C@H](Cc1ccccc1)NC(=O)[C@H](Cc1ccccc1)NC(=O)OC(C)(C)C)C(=O)OC)NC(=O)[C@H](Cc1ccccc1)NC(=O)[C@H](Cc1ccccc1)NC(=O)OC(C)(C)C is reported as 100 µM (AC-16; MTT; 36 h).
The intracellular fraction of Cc1ncsc1-c1ccc([C@H](C)NC(=O)[C@@H]2C[C@@H](O)CN2C(=O)[C@@H](NC(=O)CN2CCN(CC3CCN(CC(=O)N4CCN(c5ncc(-c6cc(NC(=O)c7ccc(F)cc7C(F)(F)F)c(N7C[C@@H](C)N(C)[C@@H](C)C7)cc6F)cn5)CC4)CC3)CC2)C(C)(C)C)cc1 is reported as 32% (Sf9; LC-MS; 10 µM, 24 h; reference: total recovery cells plus medium).
CCN(c1nc(N)c(C(=O)NC(=N)N)nc1Cl)C(C)C has a cytotoxicity of 37.1% (Calu-3; ATP content; concentration not given, 48 (unit not given)).
For CCCCn1cc(C(=O)O)c(=O)c2cc(F)c(Nc3ccccc3OC)c([N+](=O)[O-])c21, the IC50 was 310 µM (T47D; cell growth or viability, SRB).
COc1ccc(-c2coc3c(CC=C(C)C)c(O)c(CC=C(C)C)c(O)c3c2=O)cc1O gave a viability of 19.3% (K562; cell growth or viability, MTT; 25 µg/mL).
CCC(=C(c1ccc(O)cc1)c1ccc(OCCN(C)CCOCCOCCOCCOCCOCCOCCOCCOCCOCCOCCOCCN(C)CCOc2ccc(C(=C(CC)c3ccccc3)c3ccc(O)cc3)cc2)cc1)c1ccccc1 (mixture of isomers) gave a cell density of 8% (U2OS expressing ERα; 10 µM, Z-Z:Z-E:E-E 1:2:1 isomer mix).
NCCNc1nnnc2c1sc1nc(N3CCOCC3)c3c(c12)CCCC3 — result for “share of drug-related material”: 10% (human hepatocytes, cryopreserved; UHPLC-MS; 1 µM, 120 min).
With COC(=O)NC(C(=O)NN(Cc1ccc(-c2cc3ccccc3s2)cc1)CC(O)(Cc1ccccc1)C(=O)NC1c2ccccc2CC1O)C(C)(C)C (centres unmarked) the Papp A-to-B was 4.1 ± 1.3 ×10⁻⁶ cm/s (2/4/A1 rat cell monolayer; pH 7.4, 1% BSA in receiver).
The viability of COc1cc2c(cc1O)[C@]1(O)C(=O)c3c(O)cc4c(c3O[C@@H]1CO2)C=CC(C)(C)O4 is reported as 34.9% (K562; cell growth or viability, MTT; 12.5 µg/mL).
With COC(=O)NC(C(=O)NN(Cc1ccc(Br)cc1)CC(O)(Cc1ccccc1)C(=O)NC1c2ccccc2CC1O)C(C)(C)C (centres unmarked) the Papp A-to-B was 192 ± 18.8 ×10⁻⁶ cm/s (2/4/A1 rat cell monolayer; pH 7.4, 1% BSA in receiver).
With CC(C)=CCc1c2c(c(O)c3c(=O)c(-c4ccc(O)cc4)coc13)CC(C(C)(C)O)O2 (centres unmarked) the viability was 53.8% (K562; cell growth or viability, MTT; 6.25 µg/mL).
COc1ccc(/C=N/N=C/c2ccc([N+](=O)[O-])s2)cc1 has a CC50 of greater than 346 µM (MDBK; CCK-8; 72 h).
CC(=O)N[C@H](C(=O)N[C@H](C(=O)N[C@@H](CCCNC(=N)N)C(=O)N1Cc2ccccc2C[C@H]1C(=O)N[C@@H](Cc1ccccc1)C(N)=O)C1CCCCC1)C(C)C has a cytokine level of 2.5 ± 2 pg/mL (human PBMC; Bio-Plex multiplex, refers to: IL-12(p70); 500 µg/mL, 24 h).
For CCCCn1cc(C(=O)O)c(=O)c2cc(F)c3[nH]nnc3c21, the IC50 was 135 µM (PANC-1; cell growth or viability, SRB).

For quick reference, copied from above:
COc1ccc(-c2coc3c(CC=C(C)C)c(O)c(CC=C(C)C)c(O)c3c2=O)cc1O gave a viability of 19.3% (K562; cell growth or viability, MTT; 25 µg/mL).
